Measurements pooled from the literature.
Protocols differ between the studies behind these lines.
Target: Serine/threonine-protein kinase Nek11 (NEK11, Homo sapiens, UniProt Q8NG66)

| SMILES | test | setting | how to read | endpoint | value |
| --- | --- | --- | --- | --- | --- |
| COc1cc(Nc2nc(C)cc(-c3cnn4nc(OC)ccc34)n2)cc(C(F)(F)F)c1 | inhibitor | 1 µM | baseline: control | remaining activity | 99% |
| CNC(=O)C[C@H](Cc1ccc(C#N)cc1)NC(=O)c1cc(-c2ccc(CN[C@H](C)c3ccc(C)cc3)o2)ccc1Cl | enzyme activity, inhibitor | 1 µM |  | activity vs control | 112% |
| COCC12C(=O)NC3C4(C(OC)CC1O)C1CC5(O)C(OC)C(O)C(OC(C)=O)(C1C5OC(=O)c1ccccc1)C3(O)C(OC)C24 (stereo not shown) | kinase activity, inhibitor, ProQinase kinase profiling | 25 µM | baseline: control | remaining activity | 97% |
| CCN1CCN(Cc2ccc(C(=O)Nc3ccc(C)c(NCc4cnc5[nH]ccc5c4OC)c3)cc2C(F)(F)F)CC1 | binding, competition with immobilised ligand | 1 µM |  | remaining binding | 51% |
| COc1ccc(NC(=O)Nc2ccc3c(c2)C(=O)N(C(C)CO)CC(C)C(CN(C)Cc2ccc4c(c2)OCO4)O3)cc1 (stereo not shown) | kinase activity, KinaseProfiler | 0.03 µM, species human | baseline: control | remaining activity | 105% |
| CN1C[C@@H](c2c[nH]c3cc(Br)ccc23)NC[C@@H]1c1c[nH]c2cc(Br)ccc12 | enzyme activity, inhibitor | 10 µM |  | remaining activity | 106% |
| CN1CC[C@@H](COc2cnc(C#N)cc2-c2ccn3nc(NC(=O)C4CC4)cc3c2)C1 | enzyme activity, inhibitor | 1 µM |  | inhibition | 4% |
| Cc1nc2c(F)cc(-c3nc(Nc4ccc(CNC(=O)CCCCCCC(=O)NO)cc4)ncc3F)cc2n1C(C)C | enzyme activity, inhibitor | 1 µM |  | inhibition | 72% |
| CNC1C[S+]2CC[S+]3CC[S+](C1)[Ru-4]321([N]=C=S)[n]2c3ccc(OC)cc3c3c4c(c5cc(F)c[n+]1c5c32)C(=O)NC4=O (stereo not shown) | KinomeScan | 0.1 µM | baseline: untreated | remaining binding | 98% |
| NC(=O)[C@@H](O)C[C@H]1CCc2sc3ncnc(O[C@H]4CC[C@H](N5CCOCC5)CC4)c3c21 | enzyme activity, inhibitor | 10 µM |  | inhibition | -1% |
| CNC(=O)C1CCN(c2cc(C)c(F)cc2NC(=O)c2ccc(-c3cc(O)ccc3C)c(C)c2)CC1 | binding, competition with immobilised ligand | 1 µM |  | remaining binding | 58% |
| O=C(Cc1ccc(OCc2ccccc2)cc1)NC1(C(=O)O)CCN(C(=O)c2ccc(-c3cccc(Cl)c3)cc2)CC1 | enzyme activity, inhibitor | 10 µM |  | activity vs control | 103% |
| COc1c(Cl)cccc1Nc1c(-c2ccncc2C#C[C@@]2(C)CCCN2C(=O)/C=C/CN(C)C)[nH]c2c1C(=O)NCC2 | binding, competition with immobilised ligand | 3 µM |  | remaining binding | 98% |

Repeated from above:
| SMILES | test | setting | how to read | endpoint | value |
| --- | --- | --- | --- | --- | --- |
| CNC(=O)C[C@H](Cc1ccc(C#N)cc1)NC(=O)c1cc(-c2ccc(CN[C@H](C)c3ccc(C)cc3)o2)ccc1Cl | enzyme activity, inhibitor | 1 µM |  | activity vs control | 112% |
| O=C(Cc1ccc(OCc2ccccc2)cc1)NC1(C(=O)O)CCN(C(=O)c2ccc(-c3cccc(Cl)c3)cc2)CC1 | enzyme activity, inhibitor | 10 µM |  | activity vs control | 103% |
